# Measurements collected from several papers.
# Parts stem from different laboratories: compare values within a part only. Changes are numbered by the printed parent chain.

# Study 1
# Target: RNA binding protein fox-1 homolog 2, RRM domain, GST-SBP tag (RBFOX2, Homo sapiens, UniProt O43251-10, residues 100-194)
# Method: RNA Bind-n-Seq
# Form: RNA
# Matrix: in vitro
# Concentration: 365 nM
# Setting: natural RNA segment, single round, ends assumed
# Relative to: no-protein control
# Direction: higher = stronger binding
# All sequences stand within: GGGAGUUCUACAGUCCGACGAUC … UGGAAUUCUCGGGUGCCAA
# Target sequence (chain): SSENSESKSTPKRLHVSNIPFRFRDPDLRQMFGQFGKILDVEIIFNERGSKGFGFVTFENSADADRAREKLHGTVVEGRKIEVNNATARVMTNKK
Oligonucleotide,RBNS enrichment (R)
AAUGUCGGCGGCGCUGGGGUUGCAGGGAAAAGACAAAUCCUCAAAGCGUGGACGUGUGUCCCCAUGGCUUGUGGAUCAGCUAAGCUCGGGAUCAUUUCCAUAAGUCUGCU,0.593
CCCUUAGUGAGGGCAAAGUGUAGUUGGUAGAAGAAAUUGCUAAAUACCUAUCUAAUGUGCUAUGUUUAUCAAAUCGUGUACUAAAAUGGAAAGCUAGUUUUGAGAAAUUA,0.613
GUUACACCACUCCUUCGUCCUUACAGGAGAUGUAGGGAGAAGAAUCUGCAGGCUGCUUGUAGGACUGUUCACCAAGGGGGAUACCAGCAGCAAGAGAGUGCACCCGUUUA,0.636
UUUUCUUCCUUGCCUUUGGGUGUCUGCUUGCCACUUCCUAAGAAUUCUUGUAGAAGGCAGUUUCCUCUACUUGCCCAAGAGCACUGAGUACUUCUCUACUAUCCUAUUAU,0.496
AACAGUAUCUUACUUGUUGCCAUUGAAAAAAGAAUCCAACUUUUCACUUUCAAAAAUGGCUAUAUAUAUAUUUUUUUAAAGUCUCACAAACUUGGUUUAUUUUUCUUACA,0.791
CAUUAGUCUCCAUAAUUGGUCUCGCUGGACACGUGCACAGCUGUGGCUCUCAGCAGCUUCCCUGCAGCGCCACUGGGCUAAGGGGGAGCGGCCAUUUAUGUUCAUGUUCA,0.405
CGGGCUCUUCCCAGCCAACUAUGUGGAGCUGCGGCAGUAGGGCUGCCACCCAGAGCCUACCGGCACCAGCACAGGGUUCACACUACAGAGCAUCUGCGUGUGUUUGAGUU,0.313
GCACAAUCAAUAAUUUCAGACUGGGUCGCUUGCCCAGUGUUCCUGUGGAGUGGAAUGAAAUCAAUGCUGCCUGGGGCCAGACAGUGCUGCUGCUCCAUGCUUUGGCCAAU,1.56

# Study 2
# Target: CCNB2, cyclin fold, Cln2 fusion (human)
# Method: yeast growth competition, sequencing
# Matrix: yeast
# Setting: weak parent motif
# Relative to: not given
# Direction: higher = stronger binding
# Starting sequence: SCAPER docking peptide (human); SNARRSLNFGGST; partner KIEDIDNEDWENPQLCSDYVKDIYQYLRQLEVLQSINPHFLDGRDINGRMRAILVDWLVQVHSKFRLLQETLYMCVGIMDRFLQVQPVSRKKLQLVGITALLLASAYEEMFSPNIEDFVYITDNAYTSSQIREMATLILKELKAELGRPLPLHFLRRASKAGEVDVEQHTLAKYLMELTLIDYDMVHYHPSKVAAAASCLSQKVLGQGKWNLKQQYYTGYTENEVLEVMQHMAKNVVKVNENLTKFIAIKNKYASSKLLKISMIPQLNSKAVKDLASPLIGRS
Change,normalised enrichment score
SNARRSLNFGGET [S12E],0.83
SNARYSLNFGGST [R5Y],-0.0695
SNARKSLNFGGST [R5K],0.112
SNARASANFGGST [R5A L7A],-0.0297
SNARRSLNFTGST [G10T],0.153
SNARRSLEFGGST [N8E],-0.0859
SNWRRSLNFGGST [A3W],0.134
SNARRSLNFGGSP [T13P],0.0421
SNARRILNFGGST [S6I],0.332

# Study 3
# Target: Sal-like protein 4, full length isoform B (SALL4, Homo sapiens, UniProt Q9UJQ4-2, residues 1-616)
# Method: universal PBM
# Form: double-stranded DNA, one strand shown
# Matrix: in vitro
# Concentration: not given
# Setting: 8-mer, flanks averaged, mean of replicates
# Direction: higher = stronger binding
Oligonucleotide,E-score
AAACGCCC,-0.0822
ACAATCGC,-0.00231
GCGACCAC,-0.239
GTAGCAAC,0.0674
CGCCGATC,-0.161
TGTCGACA,0.146
CGCGACAC,-0.251
CCTACTTA,0.0179
CGGCTTTC,-0.278
GTCAACCA,0.00933
ACTGTTAT,0.291

# Mixed results
Substance,target,assay,system,setting,scale,endpoint,result
"PhoQ, residues 284 288 289 292 302 303 SLSLLA","PhoP, residues 12 14 15 18 19 GMGLL (Escherichia coli, UniProt P23836)","Sort-seq, refers to: YFP reporter",E. coli,"PhoQ-PhoP variant library, with: 10 µM Mg2+","relative to: high Mg2+ state, higher = stronger signaling",fold induction,18.5

# Excerpt of the above (study 2):
Change,normalised enrichment score
SNWRRSLNFGGST [A3W],0.134
SNARRILNFGGST [S6I],0.332
SNARRSLEFGGST [N8E],-0.0859
